# Experimental data gathered from unrelated publications.
# Numbered parts are unrelated; each lists some results of a single study.

# Block 1
# Target: Sal-like protein 4, full length isoform B (SALL4, Homo sapiens, UniProt Q9UJQ4-2, residues 1-616)
# Method: universal PBM
# Form: double-stranded DNA, one strand shown
# Sample: in vitro
# Concentration: not given
# Notes: 8-mer, flanks averaged, mean of replicates
# Direction: higher = stronger binding
# Construct (chain): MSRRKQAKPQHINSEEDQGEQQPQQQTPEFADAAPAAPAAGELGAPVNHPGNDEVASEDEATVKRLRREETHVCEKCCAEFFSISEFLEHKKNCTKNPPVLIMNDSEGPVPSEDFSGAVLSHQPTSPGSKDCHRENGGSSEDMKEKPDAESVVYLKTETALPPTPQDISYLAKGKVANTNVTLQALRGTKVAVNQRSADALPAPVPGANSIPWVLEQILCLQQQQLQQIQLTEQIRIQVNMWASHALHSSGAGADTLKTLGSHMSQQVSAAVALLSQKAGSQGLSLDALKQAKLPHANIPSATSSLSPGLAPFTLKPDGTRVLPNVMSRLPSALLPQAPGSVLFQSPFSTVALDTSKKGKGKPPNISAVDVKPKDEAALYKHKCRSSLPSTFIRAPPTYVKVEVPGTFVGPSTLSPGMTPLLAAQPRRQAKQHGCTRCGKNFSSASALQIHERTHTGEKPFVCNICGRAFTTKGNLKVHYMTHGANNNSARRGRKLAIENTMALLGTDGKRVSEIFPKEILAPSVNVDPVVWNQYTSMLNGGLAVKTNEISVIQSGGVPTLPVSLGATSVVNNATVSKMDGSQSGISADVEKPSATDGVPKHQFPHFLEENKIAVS
Oligonucleotide,E-score
CCAAAGCG,-0.209
GACCAATA,0.247
AAACGAGC,0.074
AACCTACA,0.154
ATCAACCA,0.0213
CCCCGAGC,-0.266
CCTTTATA,0.264
TTCTAGAA,-0.0976

# Block 2
# Target: Replicase polyprotein 1ab, main protease (rep, Severe acute respiratory syndrome coronavirus 2, UniProt P0DTD1)
# Observed: enzyme activity
# Action: inhibitor
# Concentration: 20 µM
# Notes: primary screen
SMILES,inhibition [%]
O=C1C(=Cc2cccnc2)C(=O)c2ccccc21,81
CO/N=C(\C(=O)N[C@@H]1C(=O)N2C(C(=O)OCOC(=O)C(C)(C)C)=C(/C=C\c3scnc3C)CS[C@H]12)c1csc(N)n1,41.5
Cc1c(C)c(NCC(=O)N(C)C2CCN(Cc3ccc(C(N)=O)cc3)CC2)c(C)c(C)c1N,25.5
Nc1nnc(Sc2ncc([N+](=O)[O-])s2)s1,99.9
CC(=O)O/N=C1/C(=O)N(Cc2cc(Cl)ccc2Cl)c2ccc(Cl)cc21,35.4

# Block 3
# Target: Centromere-binding protein 1, full length, N-terminal tag (CBF1, Saccharomyces cerevisiae, UniProt P17106, residues 1-351)
# Sequence of UniProt P17106 (whole entry, looked up): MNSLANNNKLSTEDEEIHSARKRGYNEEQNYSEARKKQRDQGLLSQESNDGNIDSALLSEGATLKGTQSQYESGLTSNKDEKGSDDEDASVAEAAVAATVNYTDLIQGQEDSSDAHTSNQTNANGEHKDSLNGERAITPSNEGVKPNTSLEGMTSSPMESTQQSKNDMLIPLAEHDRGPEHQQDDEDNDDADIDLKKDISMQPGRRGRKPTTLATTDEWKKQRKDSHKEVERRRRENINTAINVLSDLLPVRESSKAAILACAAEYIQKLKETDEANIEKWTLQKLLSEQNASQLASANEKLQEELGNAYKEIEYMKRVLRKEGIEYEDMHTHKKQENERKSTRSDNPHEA
# Method: protein-binding microarray
# Form: double-stranded DNA, one strand shown
# Sample: in vitro
# Concentration: 0.8 µM
# Notes: whole 60-bp probe, no competitor
# Direction: higher = stronger binding
Oligonucleotide,fluorescence intensity
GAAATCGAGATACATCAGACGAAAACAGAACGATAGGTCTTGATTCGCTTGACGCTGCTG,562 a.u.
CTAAAAATTTTTACACTGGTGACAACCTTAATGTTCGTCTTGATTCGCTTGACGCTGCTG,539 a.u.
CTATGAGTTTTCACTCACGTACAGCTAGAGAATTTCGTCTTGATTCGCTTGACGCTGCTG,593 a.u.
CTAAGTAAATACCATAACGTGCTCACATTTGTCTTCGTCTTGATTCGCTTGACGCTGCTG,823 a.u.
GAAATTTCACTTAAGCACGCAAATGCTATTTTTTAGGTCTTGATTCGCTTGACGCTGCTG,505 a.u.
GAATAAGTTACCCCTCATGACTTCCCAAGTGTGTAGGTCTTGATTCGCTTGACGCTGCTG,630 a.u.
GAATAAGGGAGGCGGCTGATGTCCATCAACCGCTAGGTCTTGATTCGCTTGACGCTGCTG,491 a.u.
GAATCTGAAGTACGTCACCTTGCAATTGAATATTAGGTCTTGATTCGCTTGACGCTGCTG,526 a.u.

# Block 4
# Cell line: HEK-293T/ACE2
# Concentration: 10 µM
# Time: 16 h
# Reference: vehicle
Compound,viability
O=C(O[C@H]1C[C@H]2CC[C@@H](C1)[N+]21CCCC1)C(O)(c1ccccc1)c1ccccc1,98.4%
CC(C)c1nc(N(C)S(C)(=O)=O)nc(-c2ccc(F)cc2)c1/C=C/[C@@H](O)C[C@@H](O)CC(=O)O,100%
Oc1ccc(OCc2ccccc2)cc1,87.5%
CCS(=O)(=O)CCn1c([N+](=O)[O-])cnc1C,101%

# Block 5
# Target: Replicase polyprotein 1ab, polymerase (rep, Severe acute respiratory syndrome coronavirus 2, UniProt P0DTD1)
# Observed: enzyme activity
# Action: inhibitor
# Concentration: 20 µM
Structure (SMILES),inhibition
COCCc1ccc(OCC(O)CNC(C)C)cc1 (centres unmarked),16%
COc1cc2c(c(OC)c1OC)-c1c(cc3c(c1OC)OCO3)C[C@H](C)[C@@](C)(O)C2,-1.03%
Cc1ccc(C(=O)N(CCCN)[C@@H](c2oc3cc(Cl)ccc3c(=O)c2Cc2ccccc2)C(C)C)cc1,7.52%
C[C@H](c1ccc2ccc(O[C@H]3CC[C@@H](C(F)(F)F)CC3)c(C(F)(F)F)c2c1)N1C2CCC1CC(C(=O)O)C2 (some centres unmarked),-3.74%
C[S+](CC[C@H](N)C(=O)[O-])C[C@H]1O[C@@H](n2cnc3c(N)ncnc32)[C@H](O)[C@@H]1O (some centres unmarked),-2.72%
CCCCN1CCC(CCC(=O)c2cc(Cl)c(N)cc2OC)CC1,1.43%
COc1cccc(Nc2ncnn3ccc(CN4CC[C@@H](N)[C@H](O)C4)c23)c1,-0.18%
C/C(=N\NC(=S)NNC(=S)Nc1ccccc1Cl)c1ccccn1,1.24%
COc1ccc2nc3ccc(Cl)cc3c(SCCCN)c2c1,-6%
COc1ccc(-c2cc(=S)ss2)cc1,-11.5%
CCOc1cc(N2CCC(O)CC2)ccc1Nc1ncc2c(n1)N(C)c1ccccc1C(=O)N2C,-0.92%
CC(C)c1onc(-c2c(Cl)cccc2Cl)c1COc1ccc(/C=C/c2cccc(C(=O)O)c2)c(Cl)c1,1.07%
CC1(C)C(=O)N(c2ccc(C#N)c(C(F)(F)F)c2)C(=O)N1CCCCO,-10.6%
NNCCc1ccccc1,20.8%
CN(C)CCOc1ccc(/C(=C(/CCCl)c2ccccc2)c2ccccc2)cc1,-12%
Cc1cccc(OCC(O)CNC(C)(C)C)c1C (centres unmarked),-0.42%
CCCCN1CCCCC1C(=O)Nc1c(C)cccc1C (centres unmarked),1.44%
CSc1ccc([C@@H]2CN3CCC[C@@H]3c3ccccc32)cc1 (racemic),-5.84%
CCN(CC)CCOC(=O)c1cc(Cl)c(N)cc1OC,3.1%
C[C@H]1O[C@@H](O[C@H]2CC[C@@]3(C)[C@H](CC[C@@H]4[C@@H]3C[C@@H](O)[C@]3(C)[C@@H](C5=CC(=O)OC5)CC[C@]43O)C2)C[C@H](O)[C@@H]1O[C@H]1C[C@H](O)[C@H](O[C@H]2C[C@H](O)[C@H](O[C@@H]3O[C@H](CO)[C@@H](O)[C@H](O)[C@H]3O)[C@@H](C)O2)[C@@H](C)O1,-13.3%
O=C(O)CCc1ccc(NCc2cccc(Oc3ccccc3)c2)cc1,-1.8%
CO/N=C(\C(=O)N[C@@H]1C(=O)N2C(C(=O)O)=C(CSc3nc(C)c(CC(=O)O)s3)CS[C@H]12)c1csc(N)n1,15.8%
CNC(=O)[C@@H](Cc1ccccc1)N(C)C(=O)[C@@H](Cc1ccc2ccccc2c1)N(C)C(=O)/C=C/CC(C)(C)N,9.35%
CCNC(=O)[C@@H]1CCCN1C(=O)[C@H](CCCN=C(N)N)NC(=O)[C@H](CC(C)C)NC(=O)[C@@H](C)NC(=O)[C@H](Cc1ccc(O)cc1)NC(=O)[C@H](CO)NC(=O)[C@H](Cc1c[nH]c2ccccc12)NC(=O)[C@H](Cc1cnc[nH]1)NC(=O)[C@@H]1CCC(=O)N1,-4%
O[C@H]([C@H](O)[C@@H]1CO1)[C@H]1CO1,-1.57%
